Published values of several laboratories.
“And” joins repeats or separate records; there may be more than shown. Numbers after ± are the reported error.
Nuclear receptor subfamily 2 group C member 2 ligand-binding domain: Nuclear receptor subfamily 2 group C member 2, ligand-binding domain (Homo sapiens, UniProt P49116)
T1: ssDNA, aptamer; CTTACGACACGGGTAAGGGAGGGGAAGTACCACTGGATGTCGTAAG

SMILES	target	assay	system	setting	how to read	quantity	result
COc1cc(Nc2ncc3c(n2)-c2ccc(Cl)cc2C(c2c(F)cccc2OC)=NC3)ccc1C(=O)O	FER	kinase activity	–	1 µM	–	remaining activity	30%
O=C(Nc1cccc2c(=O)cc(-c3nnn[nH]3)oc12)c1ccc(OCCCCc2ccccc2)cc1	LRRC8A/LRRC8C (Homo sapiens, UniProt Q8IWT6+Q8TDW0, L134K/L136K)	whole-cell patch clamp	HCT116 LRRC8-/- transfected	at +100 mV	–	Hill coefficient	0.95
CC1CCCN(C(=O)c2cc3ncccn3n2)C1 (stereo not drawn)	E3 SUMO-protein ligase PIAS1 (PIAS1, Homo sapiens, UniProt O75925)	binding, affinity selection mass spectrometry	–	–	reference: other proteins in batch	fold enrichment	1.09
O=c1nc(SCc2cc(F)cc(C(F)(F)F)c2)nc(SCc2ccc3nc(Cl)ccc3c2)[nH]1	DNA topoisomerase 2-alpha (TOP2A, Homo sapiens, UniProt P11388)	ATPase activity	–	15.6 µM, with: ATP 0.075 mM	–	ATP hydrolysis rate	0.602 µM/min and 0.539 µM/min
CC[C@@H](C)[C@@H](NC(=O)[C@@H](Cc1ccc(O)cc1)NC(=O)[C@H]1CCCN1C(=O)[C@@H](CCCNC(=N)N)NC(=O)[C@H](N)Cc1c[nH]cn1)C(=O)N[C@H](C)C(=O)N[C@H](Cc1c[nH]cn1)C(=O)N[C@H](CCCNC(=N)N)C(=O)N[C@@H](C(=O)N[C@H](Cc1ccc(O)cc1)C(=O)N[C@H](CO)C(=O)N[C@H](Cc1ccccc1)C(N)=O)C(C)C	Transferrin receptor protein 1 (Tfrc, Mus musculus, UniProt Q62351)	flow cytometry	B16	6 h, unit not given	reference: 0 h	surface TFRC expression	0.56
NCCCS(=O)(=O)O	Sodium- and chloride-dependent taurine transporter (SLC6A6, Homo sapiens, UniProt P31641, Y138A)	binding, microscale thermophoresis	–	15.6 µM, room temperature, with: 50 nM labelled protein	higher = more binding	normalised MST signal	0.301
CC[C@@]1(O)C(=O)OCc2c1cc1n(c2=O)Cc2cc3c(CN(C)C)c(O)ccc3nc2-1	Nuclear receptor subfamily 2 group C member 2 ligand-binding domain	SPR imaging	–	600 nM	–	koff	4.12e-05 s⁻¹
O=C(O)[C@@H]1CCCN1c1ncnc2[nH]cnc12 (racemic)	YTH domain-containing protein 1 (Homo sapiens, UniProt Q96MU7)	binding, affinity selection mass spectrometry	–	–	reference: other proteins in batch	log fold enrichment	-0.0605
CC(=O)c1ccc2cc(S(=O)(=O)Nc3ccccn3)ccc2c1	Signal transducer and activator of transcription 3 (STAT3, Homo sapiens, UniProt P40763)	tyrosine phosphorylation, inhibitor, ELISA, measured: phospho-Tyr705	–	–	–	log IC50	0.933
CC(=O)NCCCC[C@H](NC(=O)CNC(=O)CNC(=O)[C@H](CCCCNC(C)=O)NC(=O)CNC(=O)[C@H](CCCNC(=N)N)NC(=O)CNC(=O)[C@@H](N)CO)C(=O)NCC(=O)N[C@@H](CC(C)C)C(=O)NCC(N)=O	Bromodomain-containing protein 1 (BRD1, Homo sapiens, UniProt O95696, R585F)	binding, ITC	–	15 °C, with: peptide 2 mM	–	TΔS	0.297 kcal/mol
CO[C@H]1O[C@H](COS(=O)(=O)O)[C@@H](O[C@@H]2O[C@@H](C(=O)O)[C@@H](O[C@H]3O[C@H](COS(=O)(=O)O)[C@@H](O[C@@H]4O[C@H](C(=O)O)[C@@H](O[C@H]5O[C@H](COS(=O)(=O)O)[C@@H](O)[C@H](O)[C@H]5NS(=O)(=O)O)[C@H](O)[C@H]4O)[C@H](OS(=O)(=O)O)[C@H]3NS(=O)(=O)O)[C@H](O)[C@H]2OS(=O)(=O)O)[C@H](O)[C@H]1NS(=O)(=O)O	Beta-2-glycoprotein 1, domain V (APOH, Homo sapiens, UniProt P02749, V266L)	isothermal titration calorimetry	–	298 K, with: 100 mM NaCl	–	binding free energy ΔG	-6.59 kcal/mol
Nc1ncnc2c1ncn2[C@@H]1O[C@H](CO)[C@@H](O)[C@H]1O	Nuclear receptor subfamily 2 group C member 2 ligand-binding domain	SPR imaging	–	600 nM	–	koff	7.71e-05 s⁻¹
Nc1ncnc2c1ncn2[C@@H]1O[C@H](C[C@@H](N)CC[C@H](N)C(=O)O)[C@@H](O)[C@H]1O	O-methyltransferase (Sorghum bicolor, UniProt A0A1B6PFV1)	isothermal titration calorimetry	–	concentration not given, apo protein	–	-TΔS of binding	5.43 kcal/mol
CC(NC(=O)CCCc1ccc2ccc3cccc4ccc1c2c34)C(=O)NO (stereo not drawn)	Histone deacetylase 8 (HDAC8, Homo sapiens, UniProt Q9BY41)	ITC	Hepes buffer	concentration not given, pH 7.5	–	binding stoichiometry	0.8
CC1CC(OC(=O)C(O)c2ccccc2)CC(C)(C)C1 (stereo not drawn)	Nuclear receptor subfamily 2 group C member 2 ligand-binding domain	SPR imaging	–	600 nM	–	koff	4.19e-06 s⁻¹
COCCC(=O)N1CCC(Oc2ccccc2)C1 (stereo not drawn)	Coatomer subunit beta', WD repeat domain (Homo sapiens, UniProt P35606)	binding, affinity selection mass spectrometry	–	–	reference: other proteins in batch	fold enrichment	0.58
Nc1ncnc2c1ncn2[C@@H]1O[C@H](COP(=O)(O)OP(=O)(O)O)[C@@H](O)[C@H]1O	GUK1 (Homo sapiens, UniProt Q16774)	binding, isothermal titration calorimetry	–	molar ratio 1.319, fitted curve	–	ΔH	-0.898 kcal/mol
C[C@@H]1CCO[C@H]2Cn3cc(C(=O)NCc4ccc(F)cc4F)c(=O)c(O)c3C(=O)N12	Equilibrative nucleoside transporter 4 (SLC29A4, Homo sapiens, UniProt Q7RTT9)	transport	MDCK-II, transfected	5 µM, with: MPP+ 10 µM	–	inhibition	-1.18%

SMILES	target	assay	system	setting	how to read	quantity	result
Nc1[nH]nc2nnc(-c3c(-c4ccccc4)nn4ccccc34)cc12	Mitogen-activated protein kinase 3 (MAPK3, Homo sapiens, UniProt P27361)	ADP-Glo	–	1.38 nM, with: MBP substrate	–	kinase activity	78.5% and 116% and 95.5%
CCCC[C@H]1CN(c2cccc(OC(F)(F)F)c2)C(=O)CN1Cc1cncn1Cc1ccc(Cl)cc1	Cryptococcus neoformans farnesyltransferase	enzyme activity, inhibitor, fluorescence	–	with: 1 µM FPP, 0.5 µM dansylated peptide	–	IC50	260 ± 130 nM
CC[C@@H]1[C@H](F)C(=O)N[C@@H]1COc1nccc2cc(C(N)=O)c(OC)cc12	RPS6KC1 (Homo sapiens, UniProt Q96S38)	ATP probe binding, KiNativ profiling, measured: domain 1 ATP site	THP-1 cell lysate	0.01 mM	–	inhibition	11.8%
Nc1ncnc2c1ncn2[C@@H]1O[C@H](COP(=O)(O)OP(=O)(O)OP(=O)(O)O)[C@@H](O)[C@H]1O	T1, ssDNA, aptamer	ITC	–	–	–	Kd	791 nM
CNCCCC[C@H](NC(=O)[C@@H](NC(=O)[C@H](CCCNC(=N)N)NC(=O)[C@H](C)N)[C@@H](C)O)C(=O)N[C@@H](CCC(N)=O)C(=O)N[C@H](C(=O)N[C@@H](C)C(=O)N[C@@H](CCCNC(=N)N)C(=O)N[C@@H](CCCCN)C(=O)N[C@@H](CO)C(=O)N[C@H](C(=O)NCC(=O)NCC(=O)N[C@@H](CCCCN)C(=O)N[C@@H](C)C(=O)N[C@@H](Cc1ccc(O)cc1)C(=O)O)[C@@H](C)O)[C@@H](C)O	Transcriptional regulator ATRX (ATRX, Homo sapiens, UniProt P46100, F284Y/K251R)	isothermal titration calorimetry	–	concentration not given, pH 7.5, 25.0 °C	–	binding entropy	1.56 cal/mol/K
Cc1cn(-c2cc(NC(=O)c3ccc(C)c(Nc4nccc(-c5cccnc5)n4)c3)cc(C(F)(F)F)c2)cn1	Nuclear receptor subfamily 2 group C member 2 ligand-binding domain	SPR imaging	–	600 nM	–	koff	4.3e-09 s⁻¹
CCC1(O)CCCN(C(=O)c2ccc(-c3ccc(F)c(NC(=O)CCl)c3)cc2)C1 (stereo not drawn)	DNA dC->dU-editing enzyme APOBEC-3A (Homo sapiens, UniProt P31941)	covalent adduct, intact protein MS	–	1 h, 5-fold excess, 125 µM	–	unmodified protein	5% and 0%
CC(=O)Nc1ccc(O)cc1	Bromodomain-containing protein 4 (BRD4, Homo sapiens, UniProt O60885)	19F NMR, measured: tyrosine 118	–	95 µM	reference: free protein	chemical shift change	-0.015 ppm
COc1cc(-c2cc(C(C)=O)n3ccccc23)c(OC)cc1Cn1ccnc1	Bromodomain testis-specific protein, BD1 (BRDT, Homo sapiens, UniProt Q58F21)	–	–	–	–	ΔTm	1.3 °C
Nc1ncnc2c1ncn2[C@@H]1O[C@H](COP(=O)(O)CP(=O)(O)OP(=O)(O)O)[C@@H](O)[C@H]1O	P2X purinoceptor 1 (P2RX1, Homo sapiens, UniProt P51575, K136W)	saturation binding	HEK293	25 nM	–	specific binding	1270 CCPM and 1700 CCPM
COCCCOc1cc(C[C@@H](C[C@H](N)[C@@H](O)C[C@H](C(=O)NCC(C)(C)C(N)=O)C(C)C)C(C)C)ccc1OC	Nuclear receptor subfamily 2 group C member 2 ligand-binding domain	SPR imaging	–	600 nM	–	koff	5.84e-06 s⁻¹
C=CC(=O)N1CCC(COCC(=O)N2CCN(c3nc(-c4cnc(N)nc4C(F)F)nc(N4CCOC[C@@H]4C)n3)CC2)CC1	Activin receptor type-2B (ACVR2B, Homo sapiens, UniProt Q13705)	KINOMEscan	–	1 µM	reference: DMSO control	remaining binding	88%
Nc1nc2c(ncn2[C@@H]2O[C@H](COP(=O)(O)O)[C@@H](O)[C@H]2O)c(=O)[nH]1	GUK1 (Homo sapiens, UniProt Q16774, Y81A)	enzyme activity, NADH-coupled	–	125 µM	–	reaction rate	1.64 s⁻¹ and 2.22 s⁻¹ and 1.31 s⁻¹
CN(C(=O)n1cnc(-c2ccc[n+]([O-])c2)c1)C1CCCCC1	Fatty-acid amide hydrolase 1 (Faah, Mus musculus, UniProt O08914)	enzyme activity, inhibitor	NMRI mouse, brain	oral, 8 h	–	ED50	0.027 mg/kg
O=C(COP(=O)(O)O)[C@@H](O)[C@H](O)[C@H](O)COP(=O)(O)O	Large ribosomal subunit protein uL30 (Homo sapiens, UniProt P18124)	thermal proteome profiling, measured: RPL7	HepG2 cell lysate	concentration not given, 57 over 37 °C	reference: compound over control	thermal stability ratio	0.867 and 0.708 and 0.5
CCCCC[C@H](O)/C=C/[C@H]1[C@H](O)CC(=O)[C@@H]1CCCCCCC(=O)O	Nuclear receptor subfamily 2 group C member 2 ligand-binding domain	SPR imaging	–	600 nM	–	koff	4.24e-05 s⁻¹
COc1cccc(OC[C@@H]2CN(CCN3CCc4ccccc43)CCO2)c1	5-hydroxytryptamine receptor 1A (HTR1A, Homo sapiens, UniProt P08908)	radioligand binding	–	concentration not given, with: [3H]8-OH-DPAT	–	inhibition	80.6%
c1ccc(C(NCc2cccnc2)(c2ccccc2)c2ccccc2)cc1	Potassium voltage-gated channel subfamily KQT member 1 (KCNQ1, Homo sapiens, UniProt P51787)	whole-cell patch clamp	–	100 pM, repolarization to -120 mV	–	reactivating channels	38 ± 22%

Repeated from above:
SMILES	target	assay	system	setting	how to read	quantity	result
CCCCC[C@H](O)/C=C/[C@H]1[C@H](O)CC(=O)[C@@H]1CCCCCCC(=O)O	Nuclear receptor subfamily 2 group C member 2 ligand-binding domain	SPR imaging	–	600 nM	–	koff	4.24e-05 s⁻¹
COc1cccc(OC[C@@H]2CN(CCN3CCc4ccccc43)CCO2)c1	5-hydroxytryptamine receptor 1A (HTR1A, Homo sapiens, UniProt P08908)	radioligand binding	–	concentration not given, with: [3H]8-OH-DPAT	–	inhibition	80.6%
